{"data": "Published values pooled from the literature", "note": "Every numbered part comes from another study and shows a few of its results, in no order. Several values in a cell are separate wells, animals, samples, runs or records."}
{"data": "Sample 1", "SMILES": "Cc1ncc(-c2cc3c(Cl)c(-c4c(C)ccc(O)c4C)cnc3[nH]2)cn1", "target": "Membrane-associated tyrosine- and threonine-specific cdc2-inhibitory kinase (PKMYT1, Homo sapiens, UniProt Q99640)", "read-out": "binding", "method": "HTRF", "UniProt Q99640, sequence (whole entry, looked up)": "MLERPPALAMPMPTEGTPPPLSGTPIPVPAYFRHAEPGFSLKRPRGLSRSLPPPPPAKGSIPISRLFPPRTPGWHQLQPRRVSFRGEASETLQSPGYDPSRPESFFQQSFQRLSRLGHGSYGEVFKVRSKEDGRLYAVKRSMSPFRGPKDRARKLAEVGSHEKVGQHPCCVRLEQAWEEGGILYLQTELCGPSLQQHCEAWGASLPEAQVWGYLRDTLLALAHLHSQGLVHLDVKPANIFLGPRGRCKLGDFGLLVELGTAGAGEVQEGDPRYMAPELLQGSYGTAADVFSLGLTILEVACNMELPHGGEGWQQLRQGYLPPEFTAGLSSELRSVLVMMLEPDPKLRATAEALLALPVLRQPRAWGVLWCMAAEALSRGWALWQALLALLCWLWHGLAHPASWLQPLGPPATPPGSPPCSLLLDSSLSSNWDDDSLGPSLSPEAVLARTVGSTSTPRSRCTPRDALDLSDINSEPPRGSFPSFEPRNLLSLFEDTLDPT"}
{"setting": "41.15 nM", "inhibition": "-3.64% and 1.31%"}
{"setting": "123.46 nM", "inhibition": "19.1% and 16.4%"}
{"setting": "0.51 nM", "inhibition": "-13.5% and -6.51%"}
{"data": "Sample 2", "Structure (SMILES)": "CC(=O)NC/C(=C\\F)COc1cccc(Cn2c(=S)[nH]c(=O)c3[nH]cnc32)c1", "read-out": "enzyme activity", "action": "inhibitor", "method": "fluorescence", "MPO": "Myeloperoxidase (MPO, Homo sapiens, UniProt P05164)", "UniProt P05164, sequence (whole entry, looked up)": "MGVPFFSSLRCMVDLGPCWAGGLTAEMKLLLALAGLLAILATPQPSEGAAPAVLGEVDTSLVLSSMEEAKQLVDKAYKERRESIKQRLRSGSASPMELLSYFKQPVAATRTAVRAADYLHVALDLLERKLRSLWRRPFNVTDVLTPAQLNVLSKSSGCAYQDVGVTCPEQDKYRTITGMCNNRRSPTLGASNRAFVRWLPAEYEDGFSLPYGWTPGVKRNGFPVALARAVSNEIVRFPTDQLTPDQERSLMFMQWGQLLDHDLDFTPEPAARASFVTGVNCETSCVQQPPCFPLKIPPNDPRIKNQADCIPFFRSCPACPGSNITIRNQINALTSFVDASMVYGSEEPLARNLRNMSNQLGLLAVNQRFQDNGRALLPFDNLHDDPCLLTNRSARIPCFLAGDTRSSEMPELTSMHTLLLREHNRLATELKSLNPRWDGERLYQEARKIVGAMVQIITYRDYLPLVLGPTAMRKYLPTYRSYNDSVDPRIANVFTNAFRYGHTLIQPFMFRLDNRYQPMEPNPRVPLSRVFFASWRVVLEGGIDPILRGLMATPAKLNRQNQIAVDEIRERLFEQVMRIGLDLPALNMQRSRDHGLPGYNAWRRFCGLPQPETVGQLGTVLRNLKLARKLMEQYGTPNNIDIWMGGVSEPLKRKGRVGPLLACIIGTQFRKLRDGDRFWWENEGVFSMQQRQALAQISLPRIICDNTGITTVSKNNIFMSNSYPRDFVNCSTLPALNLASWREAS"}
{"target": "MPO", "setting": "10 µM", "inhibition": "99.3% and 99.9% and 98.7%"}
{"target": "MPO", "setting": "0.3704 µM", "inhibition": "79.8% and 80.3% and 64%"}
{"target": "MPO", "setting": "1.111 µM", "inhibition": "86.6% and 94% and 93.4%"}
{"target": "MPO", "setting": "30 µM", "inhibition": "99.4% and 99.8% and 99.2%"}
{"target": "MPO", "setting": "0.1235 µM", "inhibition": "56.3% and 47.9% and 40.4%"}
{"target": "AOC3 (Homo sapiens, UniProt Q16853)", "setting": "30 µM", "inhibition": "24.7% and 46.8%"}
{"data": "Sample 3", "Compound": "C=CC(=O)N1CCN(c2nc(OC[C@@H]3CCCN3C)nc3c2CCN(c2cccc4cccc(C)c24)C3)C[C@@H]1CC#N", "read-out": "binding", "action": "competitor", "method": "NanoBRET", "cells": "HEK293", "KRAS G13D": "GTPase KRas (KRAS, Homo sapiens, UniProt P01116, G13D)", "KRAS G12D": "GTPase KRas (KRAS, Homo sapiens, UniProt P01116, G12D)"}
{"target": "KRAS G13D", "setting": "247 nM", "normalized BRET": "81.5% and 74.7% and 83.4%"}
{"target": "KRAS G13D", "setting": "20 µM", "normalized BRET": "17% and 11.1% and 8.78%"}
{"target": "KRAS G12D", "setting": "39.1 nM", "normalized BRET": "106%"}
{"target": "GTPase KRas (KRAS, Homo sapiens, UniProt P01116, Q61H)", "setting": "741 nM", "normalized BRET": "49.5% and 61.9% and 44.6%"}
{"target": "KRAS G12D", "setting": "2.5 µM", "normalized BRET": "83.7%"}
{"target": "KRAS G12D", "setting": "2.44 nM", "normalized BRET": "114%"}
{"target": "GTPase KRas (KRAS, Homo sapiens, UniProt P01116, Q61R)", "setting": "3.05 nM", "normalized BRET": "99.9% and 99.7% and 91.1%"}
{"target": "KRAS G12D", "setting": "9.77 nM", "normalized BRET": "118%"}
{"data": "Sample 4", "Compound": "CNc1ncc2cc(-c3cc(OC)cc(OC)c3Cl)c(=O)n(CCc3ccc(NC(=O)C(C#N)=CC(C)(C)N4CCOCC4)cc3)c2n1", "read-out": "kinase activity"}
{"target": "EPHA1 (Homo sapiens, UniProt P21709)", "setting": "1 µM", "inhibition": "23%"}
{"target": "TXK (Homo sapiens, UniProt P42681)", "setting": "0.1 µM", "inhibition": "0%"}
{"target": "MAP4K5 (Homo sapiens, UniProt Q9Y4K4)", "setting": "0.1 µM", "inhibition": "-3%"}
{"target": "RPS6KB2 (Homo sapiens, UniProt Q9UBS0)", "setting": "0.1 µM", "inhibition": "-2%"}
{"target": "ZAP70 (Homo sapiens, UniProt P43403)", "setting": "1 µM", "inhibition": "0%"}
{"target": "PRKD2 (Homo sapiens, UniProt Q9BZL6)", "setting": "0.1 µM", "inhibition": "2%"}
{"target": "PDGFRA (Homo sapiens, UniProt P16234)", "setting": "1 µM", "inhibition": "58%"}
{"target": "STK25 (Homo sapiens, UniProt O00506)", "setting": "1 µM", "inhibition": "21%"}
{"target": "CSNK2A1 (Homo sapiens, UniProt P68400)", "setting": "1 µM", "inhibition": "10%"}
{"target": "PHKG1 (Homo sapiens, UniProt Q16816)", "setting": "1 µM", "inhibition": "-10%"}
{"target": "CAMK1 (Homo sapiens, UniProt Q14012)", "setting": "1 µM", "inhibition": "2%"}
{"target": "Tyrosine-protein kinase Lyn, isoform B (LYN, Homo sapiens, UniProt P07948)", "setting": "1 µM", "inhibition": "21%"}
{"target": "SPHK1 (Homo sapiens, UniProt Q9NYA1)", "setting": "0.1 µM", "inhibition": "4%"}
{"target": "MARK2 (Homo sapiens, UniProt Q7KZI7)", "setting": "1 µM", "inhibition": "2%"}
{"data": "Sample 5", "Compound": "CC[C@@]1(c2cccc(C(F)(F)F)c2)C2=C(Nc3n[nH]cc31)[C@H](F)C(C)(C)CC2=O (single isomer, unassigned)", "tested at": "1 µM"}
{"target": "MAP3K9 (Homo sapiens, UniProt P80192)", "test": "kinase binding, KINOMEscan", "scale": "reference: DMSO control", "remaining binding [%]": 92}
{"target": "BLK (Homo sapiens, UniProt P51451)", "test": "binding, competition with immobilised ligand", "remaining binding [%]": 99}
{"target": "TYRO3 (Homo sapiens, UniProt Q06418)", "test": "binding, competition with immobilised ligand", "remaining binding [%]": 100}
{"target": "HUNK (Homo sapiens, UniProt P57058)", "test": "binding, competition with immobilised ligand", "remaining binding [%]": 77}
{"target": "PAK4 (Homo sapiens, UniProt O96013)", "test": "binding, competition with immobilised ligand", "remaining binding [%]": 100}
{"target": "STK24 (Homo sapiens, UniProt Q9Y6E0)", "test": "binding, competition with immobilised ligand", "remaining binding [%]": 88}
{"target": "CHEK1 (Homo sapiens, UniProt O14757)", "test": "binding, competition with immobilised ligand", "remaining binding [%]": 97}
{"target": "CRK2 (Plasmodium falciparum, UniProt P61075)", "test": "kinase binding, KINOMEscan", "scale": "reference: DMSO control", "remaining binding [%]": 100}
{"target": "MET (Homo sapiens, UniProt P08581, M1250T)", "test": "binding, competition with immobilised ligand", "remaining binding [%]": 99}
{"target": "DCLK3 (Homo sapiens, UniProt Q9C098)", "test": "binding, competition with immobilised ligand", "remaining binding [%]": 100}
{"target": "MAP2K7 (Homo sapiens, UniProt O14733)", "test": "kinase binding, KINOMEscan", "scale": "reference: DMSO control", "remaining binding [%]": 100}
{"target": "CDK14 (Homo sapiens, UniProt O94921)", "test": "binding, competition with immobilised ligand", "remaining binding [%]": 100}
{"target": "RIOK2 (Homo sapiens, UniProt Q9BVS4)", "test": "binding, competition with immobilised ligand", "remaining binding [%]": 92}
{"data": "Sample 6", "SMILES": "COc1cc(-c2nc3ccc(C(=O)NCCCN(C)C)cc3n2C2CCC2)cc(OC)c1OC", "method": "NanoBRET", "tested at": "1 µM"}
{"target": "HIPK2 (Homo sapiens, UniProt Q9H2X6)", "target occupancy [%]": 1.56}
{"target": "DYRK1A (Homo sapiens, UniProt Q13627)", "target occupancy [%]": 4.37}
{"target": "EPHA1 (Homo sapiens, UniProt P21709)", "target occupancy [%]": -0.5}
{"target": "STK38 (Homo sapiens, UniProt Q15208)", "target occupancy [%]": 8.38}
{"target": "MAP3K2 (Homo sapiens, UniProt Q9Y2U5)", "target occupancy [%]": -2.04}
{"target": "ERN2 (Homo sapiens, UniProt Q76MJ5)", "target occupancy [%]": 0.62}
{"target": "FGFR2 (Homo sapiens, UniProt P21802)", "target occupancy [%]": -0.52}
{"target": "MAP3K10 (Homo sapiens, UniProt Q02779)", "target occupancy [%]": -6.53}
{"target": "TXK (Homo sapiens, UniProt P42681)", "target occupancy [%]": -0.49}
{"target": "NEK3 (Homo sapiens, UniProt P51956)", "target occupancy [%]": -1.34}
{"target": "Cyclin-dependent kinase 18, with cyclin Y (CDK18, Homo sapiens, UniProt Q07002)", "target occupancy [%]": 6.89}
{"target": "CSNK2A1 (Homo sapiens, UniProt P68400)", "target occupancy [%]": 0.01}
{"target": "MAP3K12 (Homo sapiens, UniProt Q12852)", "target occupancy [%]": 1.92}
{"target": "RIPK1 (Homo sapiens, UniProt Q13546)", "target occupancy [%]": -3.47}
{"target": "CSNK1G2 (Homo sapiens, UniProt P78368)", "target occupancy [%]": 3.92}
{"data": "Sample 7", "SMILES": "CCOc1ccc2nc(Sc3nc(Nc4ccc(I)cc4)nc(N4CCOCC4)n3)sc2c1", "target": "1-phosphatidylinositol 3-phosphate 5-kinase (PIKFYVE, Homo sapiens, UniProt Q9Y2I7)", "method": "KINOMEscan", "setting": "unit not given", "reference": "DMSO", "UniProt Q9Y2I7, sequence (whole entry, looked up)": "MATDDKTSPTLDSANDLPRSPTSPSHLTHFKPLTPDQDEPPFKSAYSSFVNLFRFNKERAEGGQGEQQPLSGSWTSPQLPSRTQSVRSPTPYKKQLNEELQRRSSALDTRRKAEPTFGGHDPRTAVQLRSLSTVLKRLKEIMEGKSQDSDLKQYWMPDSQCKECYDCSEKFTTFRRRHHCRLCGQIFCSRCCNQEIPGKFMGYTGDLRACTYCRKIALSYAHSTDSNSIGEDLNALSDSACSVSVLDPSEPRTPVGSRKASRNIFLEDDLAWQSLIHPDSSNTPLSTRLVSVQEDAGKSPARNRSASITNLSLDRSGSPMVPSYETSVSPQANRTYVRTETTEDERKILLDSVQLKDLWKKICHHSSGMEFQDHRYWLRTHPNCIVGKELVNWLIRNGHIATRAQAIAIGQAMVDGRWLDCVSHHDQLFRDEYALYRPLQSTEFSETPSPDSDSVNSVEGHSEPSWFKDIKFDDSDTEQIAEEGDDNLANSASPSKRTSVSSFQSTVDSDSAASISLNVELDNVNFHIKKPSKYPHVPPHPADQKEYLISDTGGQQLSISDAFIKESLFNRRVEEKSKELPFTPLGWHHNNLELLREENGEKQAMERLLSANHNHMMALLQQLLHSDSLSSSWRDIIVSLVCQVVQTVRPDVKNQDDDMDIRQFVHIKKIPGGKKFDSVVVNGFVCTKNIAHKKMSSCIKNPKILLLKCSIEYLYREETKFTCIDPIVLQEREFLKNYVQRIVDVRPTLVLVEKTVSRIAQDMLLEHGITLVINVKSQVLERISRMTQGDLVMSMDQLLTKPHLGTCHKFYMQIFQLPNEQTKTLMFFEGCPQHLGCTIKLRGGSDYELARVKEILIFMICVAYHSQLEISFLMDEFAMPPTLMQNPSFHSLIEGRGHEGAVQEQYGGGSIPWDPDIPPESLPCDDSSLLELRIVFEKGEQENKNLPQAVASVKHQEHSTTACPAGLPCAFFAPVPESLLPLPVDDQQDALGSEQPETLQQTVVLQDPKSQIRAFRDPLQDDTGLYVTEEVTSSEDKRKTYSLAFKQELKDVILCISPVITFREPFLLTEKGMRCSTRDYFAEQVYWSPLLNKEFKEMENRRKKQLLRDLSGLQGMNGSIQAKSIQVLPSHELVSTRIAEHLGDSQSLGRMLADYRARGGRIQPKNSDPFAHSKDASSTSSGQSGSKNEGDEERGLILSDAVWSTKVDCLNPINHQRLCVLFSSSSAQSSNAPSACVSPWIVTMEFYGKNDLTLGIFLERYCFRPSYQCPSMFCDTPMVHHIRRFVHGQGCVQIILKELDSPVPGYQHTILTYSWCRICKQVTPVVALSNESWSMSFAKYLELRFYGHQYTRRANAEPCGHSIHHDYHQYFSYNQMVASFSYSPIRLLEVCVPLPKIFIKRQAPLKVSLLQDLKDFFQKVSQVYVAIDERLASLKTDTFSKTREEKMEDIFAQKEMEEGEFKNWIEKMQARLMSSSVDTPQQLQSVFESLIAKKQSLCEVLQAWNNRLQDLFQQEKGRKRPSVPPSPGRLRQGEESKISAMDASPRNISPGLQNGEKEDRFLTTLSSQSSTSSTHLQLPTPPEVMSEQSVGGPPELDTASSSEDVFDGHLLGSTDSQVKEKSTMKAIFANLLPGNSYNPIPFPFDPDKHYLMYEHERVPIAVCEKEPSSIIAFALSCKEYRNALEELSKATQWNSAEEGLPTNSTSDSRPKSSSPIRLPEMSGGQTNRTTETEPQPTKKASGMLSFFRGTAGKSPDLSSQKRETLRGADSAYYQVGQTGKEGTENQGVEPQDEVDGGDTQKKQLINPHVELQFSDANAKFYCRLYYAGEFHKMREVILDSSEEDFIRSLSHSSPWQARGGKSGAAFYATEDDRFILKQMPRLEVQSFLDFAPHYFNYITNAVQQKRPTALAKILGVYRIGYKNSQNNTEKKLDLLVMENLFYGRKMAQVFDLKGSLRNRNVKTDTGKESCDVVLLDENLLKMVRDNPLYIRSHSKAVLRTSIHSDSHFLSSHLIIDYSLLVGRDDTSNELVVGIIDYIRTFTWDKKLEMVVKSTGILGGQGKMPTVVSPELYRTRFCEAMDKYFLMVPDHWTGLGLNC"}
{"setting": "1100 nM", "remaining binding": "0.0262 and 0.0218"}
{"setting": "41.2 nM", "remaining binding": "0.418 and 0.509"}
{"setting": "0.503 nM", "remaining binding": "0.853 and 0.744"}
{"setting": "370 nM", "remaining binding": "0.0769 and 0.075"}
{"setting": "0.508 nM", "remaining binding": "0.853 and 0.846"}
{"setting": "3330 nM", "remaining binding": "0.0054 and 0.00545"}
{"setting": "367 nM", "remaining binding": "0.0674 and 0.064"}
{"setting": "4.57 nM", "remaining binding": "0.876 and 0.838"}
{"data": "Sample 8", "Structure (SMILES)": "C[C@@H]1CN(c2ccc(-c3cc(C(=O)NCCOCCOCCOCCOCCNC(=O)Cn4cc(-c5[nH]cc(C(=O)N[C@@H](CC(N)=O)c6ccc(F)c(Cl)c6)c5-c5ccc(Cl)cc5F)cn4)ccc3F)cc2NC(=O)c2c[nH]c(=O)cc2C(F)(F)F)C[C@H](C)N1C", "read-out": "thermal unfolding", "method": "differential scanning fluorimetry", "tested at": "5.5 µM", "reading": "higher = more unfolded", "DCAF1": "DDB1- and CUL4-associated factor 1 (DCAF1, Homo sapiens, UniProt Q9Y4B6)", "WDR5": "WD repeat-containing protein 5 (WDR5, Homo sapiens, UniProt P61964)", "UniProt Q9Y4B6, sequence (whole entry, looked up)": "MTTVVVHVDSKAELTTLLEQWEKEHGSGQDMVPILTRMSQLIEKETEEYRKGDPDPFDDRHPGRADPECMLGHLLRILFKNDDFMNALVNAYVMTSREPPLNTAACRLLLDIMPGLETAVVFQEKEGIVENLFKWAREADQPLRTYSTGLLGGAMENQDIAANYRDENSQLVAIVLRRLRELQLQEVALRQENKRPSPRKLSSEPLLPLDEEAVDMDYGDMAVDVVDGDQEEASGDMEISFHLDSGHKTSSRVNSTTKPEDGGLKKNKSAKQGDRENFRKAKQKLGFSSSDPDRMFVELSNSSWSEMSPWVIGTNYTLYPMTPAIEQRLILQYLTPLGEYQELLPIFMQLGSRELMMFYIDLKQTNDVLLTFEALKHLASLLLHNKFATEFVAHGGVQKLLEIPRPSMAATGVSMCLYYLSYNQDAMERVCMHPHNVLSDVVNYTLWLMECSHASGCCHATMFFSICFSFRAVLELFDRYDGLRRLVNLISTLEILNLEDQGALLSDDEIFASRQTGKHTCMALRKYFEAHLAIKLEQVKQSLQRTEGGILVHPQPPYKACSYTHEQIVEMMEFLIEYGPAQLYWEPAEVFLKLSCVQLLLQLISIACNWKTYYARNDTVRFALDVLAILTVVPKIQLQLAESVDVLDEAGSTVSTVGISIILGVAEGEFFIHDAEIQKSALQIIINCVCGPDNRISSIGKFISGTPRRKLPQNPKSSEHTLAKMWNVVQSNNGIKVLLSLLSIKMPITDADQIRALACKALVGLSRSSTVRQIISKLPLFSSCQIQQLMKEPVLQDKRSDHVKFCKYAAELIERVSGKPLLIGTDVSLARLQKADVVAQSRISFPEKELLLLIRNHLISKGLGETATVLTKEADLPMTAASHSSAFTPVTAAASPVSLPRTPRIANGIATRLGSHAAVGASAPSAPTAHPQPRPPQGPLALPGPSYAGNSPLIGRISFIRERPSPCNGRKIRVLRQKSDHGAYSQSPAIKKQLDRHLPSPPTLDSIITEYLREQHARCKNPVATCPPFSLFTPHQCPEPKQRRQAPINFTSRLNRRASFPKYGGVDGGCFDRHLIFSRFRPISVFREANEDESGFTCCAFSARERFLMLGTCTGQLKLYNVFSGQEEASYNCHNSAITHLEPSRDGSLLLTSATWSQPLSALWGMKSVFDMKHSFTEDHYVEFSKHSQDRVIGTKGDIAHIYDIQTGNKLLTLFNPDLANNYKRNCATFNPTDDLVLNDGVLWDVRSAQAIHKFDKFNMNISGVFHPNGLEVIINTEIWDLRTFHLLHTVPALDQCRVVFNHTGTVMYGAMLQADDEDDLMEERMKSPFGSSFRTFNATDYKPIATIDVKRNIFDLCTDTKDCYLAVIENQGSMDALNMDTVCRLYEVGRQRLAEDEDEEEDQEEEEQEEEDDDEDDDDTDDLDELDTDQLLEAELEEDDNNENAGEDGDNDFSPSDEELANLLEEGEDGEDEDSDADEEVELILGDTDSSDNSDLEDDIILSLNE"}
{"target": "DCAF1", "setting": "47 °C", "SYPRO Orange fluorescence": "13200 a.u."}
{"target": "DCAF1", "setting": "44.6 °C", "SYPRO Orange fluorescence": "12100 a.u."}
{"target": "DCAF1", "setting": "86.21 °C", "SYPRO Orange fluorescence": "38600 a.u."}
{"target": "DCAF1", "setting": "78.21 °C", "SYPRO Orange fluorescence": "45700 a.u."}
{"target": "DCAF1", "setting": "73.01 °C", "SYPRO Orange fluorescence": "51400 a.u."}
{"target": "WDR5", "setting": "80.61 °C", "SYPRO Orange fluorescence": "25300 a.u."}
{"target": "WDR5", "setting": "67.21 °C", "SYPRO Orange fluorescence": "7000 a.u."}
{"note": "Repeated from above (sample 5):"}
{"target": "BLK (Homo sapiens, UniProt P51451)", "test": "binding, competition with immobilised ligand", "remaining binding [%]": 99}
{"target": "TYRO3 (Homo sapiens, UniProt Q06418)", "test": "binding, competition with immobilised ligand", "remaining binding [%]": 100}
{"target": "HUNK (Homo sapiens, UniProt P57058)", "test": "binding, competition with immobilised ligand", "remaining binding [%]": 77}
{"target": "PAK4 (Homo sapiens, UniProt O96013)", "test": "binding, competition with immobilised ligand", "remaining binding [%]": 100}
{"target": "STK24 (Homo sapiens, UniProt Q9Y6E0)", "test": "binding, competition with immobilised ligand", "remaining binding [%]": 88}
{"target": "CHEK1 (Homo sapiens, UniProt O14757)", "test": "binding, competition with immobilised ligand", "remaining binding [%]": 97}
{"target": "CRK2 (Plasmodium falciparum, UniProt P61075)", "test": "kinase binding, KINOMEscan", "scale": "reference: DMSO control", "remaining binding [%]": 100}
{"target": "MET (Homo sapiens, UniProt P08581, M1250T)", "test": "binding, competition with immobilised ligand", "remaining binding [%]": 99}
{"target": "DCLK3 (Homo sapiens, UniProt Q9C098)", "test": "binding, competition with immobilised ligand", "remaining binding [%]": 100}
{"target": "MAP2K7 (Homo sapiens, UniProt O14733)", "test": "kinase binding, KINOMEscan", "scale": "reference: DMSO control", "remaining binding [%]": 100}
{"target": "CDK14 (Homo sapiens, UniProt O94921)", "test": "binding, competition with immobilised ligand", "remaining binding [%]": 100}
{"target": "RIOK2 (Homo sapiens, UniProt Q9BVS4)", "test": "binding, competition with immobilised ligand", "remaining binding [%]": 92}
